{"data": "Assay results pooled from the literature", "FGFR3": "Fibroblast growth factor receptor 3 (FGFR3, Homo sapiens, UniProt P22607)", "FGFR3 G697C": "Fibroblast growth factor receptor 3 (FGFR3, Homo sapiens, UniProt P22607, G697C)", "note": "Lines come from different studies, so protocols differ."}
{"Compound": "Cc1ccc(-c2c(/C=C(\\C#N)C(=O)NC(C)C)n(CCCO)c3ncnc(N)c23)cc1", "target": "FGFR3", "read-out": "cell-free assay", "technique": "competition with immobilised ligand", "tested at": "1 µM", "remaining binding [%]": 100}
{"Compound": "CCN1CCN(Cc2ccc(C(=O)Nc3ccc(C)c(NCc4cnc5[nH]ccc5c4OC)c3)cc2C(F)(F)F)CC1", "target": "FGFR3 G697C", "read-out": "binding", "technique": "competition with immobilised ligand", "tested at": "1 µM", "remaining binding [%]": 42}
{"Compound": "CNS(=O)(=O)Nc1nccc(Cc2c(C)c3ccc(Oc4ncccc4F)cc3oc2=O)c1F", "target": "FGFR3", "read-out": "cell-free assay", "technique": "competition with immobilised ligand", "tested at": "10 µM", "remaining binding [%]": 97}
{"Compound": "C=CC(=O)N1CCc2ccc(-n3c(=O)ccc4cnc5ccc(-c6cnn(C)c6)cc5c43)cc21", "target": "FGFR3 G697C", "technique": "KINOMEscan", "tested at": "1 µM", "relative to": "DMSO control", "remaining binding [%]": 100}
{"Compound": "Nc1ncc2c(n1)-c1c([nH]c3ccc(C4=CCOCC4)cc13)CCC2", "target": "FGFR3 G697C", "read-out": "binding", "technique": "competition with immobilised ligand", "tested at": "1 µM", "remaining binding [%]": 100}
{"Compound": "CNC1C[S+]2CC[S+]3CC[S+](C1)[Ru-4]321([N]=C=S)[n]2c3ccc(OC)cc3c3c4c(c5cc(F)c[n+]1c5c32)C(=O)NC4=O (stereo not shown)", "target": "FGFR3", "technique": "KinomeScan", "tested at": "0.1 µM", "relative to": "untreated", "remaining binding [%]": 92}
{"Compound": "CC(=O)N1c2ccc(-c3ccc(CNC(=O)c4cn5cc(-c6cnc(N)nc6)nc(N6CCOCC6)c5n4)cc3)cc2CC[C@@H]1C", "target": "FGFR3", "technique": "KINOMEscan", "tested at": "10 µM", "remaining binding [%]": 100}
{"Compound": "CNC(=O)C1CCN(c2cc(C)c(F)cc2NC(=O)c2ccc(-c3cc(O)ccc3C)c(C)c2)CC1", "target": "FGFR3 G697C", "read-out": "binding", "technique": "competition with immobilised ligand", "tested at": "1 µM", "remaining binding [%]": 100}
{"Compound": "Cc1cnc2nc1Nc1cccc(c1)COC/C=C/COCc1cc(ccc1OCCN1CCOCC1)N2", "target": "FGFR3 G697C", "read-out": "binding", "tested at": "0.1 µM", "remaining binding [%]": 100}
{"Compound": "CC(C)=CC1OC(C)(C)C2C=C3C(=O)C(Cl)=CC(O)C3C3C(O)C4OC4C(=O)C132 (stereo not shown)", "target": "FGFR3 G697C", "read-out": "cell-free assay", "technique": "competition with immobilised ligand", "tested at": "10 µM", "remaining binding [%]": 87}
{"Compound": "COc1c(Cl)cccc1Nc1c(-c2ccncc2C#C[C@@]2(C)CCCN2C(=O)/C=C/CN(C)C)[nH]c2c1C(=O)NCC2", "target": "FGFR3", "read-out": "cell-free assay", "technique": "competition with immobilised ligand", "tested at": "3 µM", "remaining binding [%]": 100}
{"Compound": "C=CC(=O)N1CCCC(n2c(=O)c3ncccc3n(Cc3ccc(Oc4ccccc4)cc3)c2=O)C1 (stereo not shown)", "target": "FGFR3 G697C", "read-out": "cell-free assay", "technique": "competition with immobilised ligand", "tested at": "1 µM", "remaining binding [%]": 85}
{"Compound": "CN1CCN(Cc2ccc(NC(=O)c3cccc(C#Cc4cnc(N)c5ncccc45)c3)cc2C(F)(F)F)CC1", "target": "FGFR3", "read-out": "cell-free assay", "technique": "competition with immobilised ligand", "tested at": "0.5 µM", "remaining binding [%]": 1.2}
{"note": "Some of these lines once more:"}
{"Compound": "CNC1C[S+]2CC[S+]3CC[S+](C1)[Ru-4]321([N]=C=S)[n]2c3ccc(OC)cc3c3c4c(c5cc(F)c[n+]1c5c32)C(=O)NC4=O (stereo not shown)", "target": "FGFR3", "technique": "KinomeScan", "tested at": "0.1 µM", "relative to": "untreated", "remaining binding [%]": 92}
